Assay results pooled from the literature.
Protocols differ between the studies behind these lines. “And” joins repeats or separate records; there may be more than shown. ± marks the error that the study gave.

The chains behind the UniProt entries cited, without tags or fusion partners. Where a name states a change or a piece, a line headed by the entry shows the natural chain unless it says otherwise.
UniProt P30926, whole entry, looked up: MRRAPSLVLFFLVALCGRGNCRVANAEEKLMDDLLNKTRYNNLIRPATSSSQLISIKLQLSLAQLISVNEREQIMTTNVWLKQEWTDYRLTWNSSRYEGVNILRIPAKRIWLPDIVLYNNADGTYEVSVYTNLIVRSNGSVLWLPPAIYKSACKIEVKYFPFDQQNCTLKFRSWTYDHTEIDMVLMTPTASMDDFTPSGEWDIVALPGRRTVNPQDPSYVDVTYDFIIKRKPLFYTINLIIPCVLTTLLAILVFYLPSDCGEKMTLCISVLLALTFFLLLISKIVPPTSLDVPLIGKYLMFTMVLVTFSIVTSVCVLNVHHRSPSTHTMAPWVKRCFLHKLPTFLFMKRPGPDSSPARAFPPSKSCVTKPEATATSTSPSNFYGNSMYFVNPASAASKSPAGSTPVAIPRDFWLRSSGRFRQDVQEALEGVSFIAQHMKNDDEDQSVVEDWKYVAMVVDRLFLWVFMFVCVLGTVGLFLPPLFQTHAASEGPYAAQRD
UniProt P32297, whole entry, looked up: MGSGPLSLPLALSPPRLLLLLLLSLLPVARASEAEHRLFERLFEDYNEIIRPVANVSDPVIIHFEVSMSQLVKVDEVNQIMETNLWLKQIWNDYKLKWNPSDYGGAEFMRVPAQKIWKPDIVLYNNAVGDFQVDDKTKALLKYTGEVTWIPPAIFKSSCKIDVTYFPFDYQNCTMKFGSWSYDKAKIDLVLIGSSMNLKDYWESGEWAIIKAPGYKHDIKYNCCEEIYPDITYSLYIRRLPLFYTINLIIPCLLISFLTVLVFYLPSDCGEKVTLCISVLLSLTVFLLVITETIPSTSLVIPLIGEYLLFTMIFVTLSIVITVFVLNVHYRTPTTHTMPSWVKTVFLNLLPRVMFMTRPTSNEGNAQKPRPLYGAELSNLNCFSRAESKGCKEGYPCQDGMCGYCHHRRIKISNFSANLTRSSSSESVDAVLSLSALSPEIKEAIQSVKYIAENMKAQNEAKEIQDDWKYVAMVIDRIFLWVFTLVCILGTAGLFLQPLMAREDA
UniProt P97612, whole entry, looked up: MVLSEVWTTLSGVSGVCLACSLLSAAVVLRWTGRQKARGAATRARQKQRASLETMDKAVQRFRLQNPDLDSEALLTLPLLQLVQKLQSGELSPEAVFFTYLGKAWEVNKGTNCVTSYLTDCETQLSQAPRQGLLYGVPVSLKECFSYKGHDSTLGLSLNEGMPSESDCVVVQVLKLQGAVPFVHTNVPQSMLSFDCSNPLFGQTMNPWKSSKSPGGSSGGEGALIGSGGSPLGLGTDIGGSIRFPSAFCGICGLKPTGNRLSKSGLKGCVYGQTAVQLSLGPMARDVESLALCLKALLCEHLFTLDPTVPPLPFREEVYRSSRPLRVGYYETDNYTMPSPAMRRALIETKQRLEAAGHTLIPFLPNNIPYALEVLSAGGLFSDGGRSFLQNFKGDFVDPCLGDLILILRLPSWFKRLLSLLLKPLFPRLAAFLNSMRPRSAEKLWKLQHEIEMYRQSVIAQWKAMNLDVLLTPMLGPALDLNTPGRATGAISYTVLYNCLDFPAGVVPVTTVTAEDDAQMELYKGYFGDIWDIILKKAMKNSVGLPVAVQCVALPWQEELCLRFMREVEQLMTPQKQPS
UniProt P54282, whole entry, looked up: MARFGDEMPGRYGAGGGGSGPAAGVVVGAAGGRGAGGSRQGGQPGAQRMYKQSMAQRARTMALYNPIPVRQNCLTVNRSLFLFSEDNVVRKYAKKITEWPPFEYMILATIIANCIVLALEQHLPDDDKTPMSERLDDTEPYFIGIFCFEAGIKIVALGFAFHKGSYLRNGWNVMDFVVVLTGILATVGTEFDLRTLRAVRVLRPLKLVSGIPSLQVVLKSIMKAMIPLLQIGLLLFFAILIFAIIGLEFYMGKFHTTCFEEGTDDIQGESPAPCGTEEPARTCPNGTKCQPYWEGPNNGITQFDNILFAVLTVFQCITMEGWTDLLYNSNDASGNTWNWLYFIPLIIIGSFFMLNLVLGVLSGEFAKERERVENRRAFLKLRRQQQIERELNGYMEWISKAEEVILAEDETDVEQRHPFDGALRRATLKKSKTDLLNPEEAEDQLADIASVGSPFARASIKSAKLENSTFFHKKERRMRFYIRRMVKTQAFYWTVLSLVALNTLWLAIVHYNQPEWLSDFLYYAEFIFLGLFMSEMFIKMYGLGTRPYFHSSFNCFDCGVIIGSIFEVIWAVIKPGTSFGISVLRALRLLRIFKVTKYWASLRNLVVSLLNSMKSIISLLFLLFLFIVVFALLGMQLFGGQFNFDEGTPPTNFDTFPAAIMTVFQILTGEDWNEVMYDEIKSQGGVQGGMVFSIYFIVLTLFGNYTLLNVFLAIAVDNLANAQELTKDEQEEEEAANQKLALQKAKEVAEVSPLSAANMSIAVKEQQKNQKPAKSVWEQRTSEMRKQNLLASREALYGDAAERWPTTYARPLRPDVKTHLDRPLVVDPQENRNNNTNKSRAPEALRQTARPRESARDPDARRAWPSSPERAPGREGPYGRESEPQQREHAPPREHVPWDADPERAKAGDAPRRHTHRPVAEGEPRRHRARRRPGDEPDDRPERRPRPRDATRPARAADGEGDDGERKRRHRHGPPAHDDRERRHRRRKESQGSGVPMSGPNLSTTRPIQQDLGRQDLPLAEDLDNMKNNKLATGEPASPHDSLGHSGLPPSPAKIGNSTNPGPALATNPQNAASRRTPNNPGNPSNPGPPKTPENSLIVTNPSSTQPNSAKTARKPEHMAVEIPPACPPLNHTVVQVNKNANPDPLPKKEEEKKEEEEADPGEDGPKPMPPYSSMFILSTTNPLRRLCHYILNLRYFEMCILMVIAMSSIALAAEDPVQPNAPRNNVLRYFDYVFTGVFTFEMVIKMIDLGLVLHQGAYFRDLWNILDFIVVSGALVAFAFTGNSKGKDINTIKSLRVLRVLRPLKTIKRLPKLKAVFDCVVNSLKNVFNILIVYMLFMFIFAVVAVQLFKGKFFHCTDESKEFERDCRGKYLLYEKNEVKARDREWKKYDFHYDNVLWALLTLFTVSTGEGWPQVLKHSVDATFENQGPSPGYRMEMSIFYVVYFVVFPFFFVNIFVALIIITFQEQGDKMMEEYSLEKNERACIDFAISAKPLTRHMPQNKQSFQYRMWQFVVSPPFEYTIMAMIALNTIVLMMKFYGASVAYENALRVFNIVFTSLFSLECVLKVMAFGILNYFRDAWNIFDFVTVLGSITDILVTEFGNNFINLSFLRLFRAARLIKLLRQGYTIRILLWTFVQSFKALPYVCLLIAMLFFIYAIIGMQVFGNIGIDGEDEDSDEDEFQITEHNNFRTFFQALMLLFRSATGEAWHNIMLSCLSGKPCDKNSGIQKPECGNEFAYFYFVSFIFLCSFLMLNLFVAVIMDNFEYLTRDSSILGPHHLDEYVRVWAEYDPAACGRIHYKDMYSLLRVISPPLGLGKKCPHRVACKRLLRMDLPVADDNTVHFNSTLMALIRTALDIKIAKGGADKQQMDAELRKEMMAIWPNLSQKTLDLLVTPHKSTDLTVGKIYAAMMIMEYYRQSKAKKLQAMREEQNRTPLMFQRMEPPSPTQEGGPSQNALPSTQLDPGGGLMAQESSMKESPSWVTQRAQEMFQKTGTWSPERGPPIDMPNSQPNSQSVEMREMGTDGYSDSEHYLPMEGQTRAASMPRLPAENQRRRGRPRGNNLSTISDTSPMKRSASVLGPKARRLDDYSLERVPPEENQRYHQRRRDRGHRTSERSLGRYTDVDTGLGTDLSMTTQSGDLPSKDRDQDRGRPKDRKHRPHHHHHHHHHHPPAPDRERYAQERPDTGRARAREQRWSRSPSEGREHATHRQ
UniProt Q02294, whole entry, looked up: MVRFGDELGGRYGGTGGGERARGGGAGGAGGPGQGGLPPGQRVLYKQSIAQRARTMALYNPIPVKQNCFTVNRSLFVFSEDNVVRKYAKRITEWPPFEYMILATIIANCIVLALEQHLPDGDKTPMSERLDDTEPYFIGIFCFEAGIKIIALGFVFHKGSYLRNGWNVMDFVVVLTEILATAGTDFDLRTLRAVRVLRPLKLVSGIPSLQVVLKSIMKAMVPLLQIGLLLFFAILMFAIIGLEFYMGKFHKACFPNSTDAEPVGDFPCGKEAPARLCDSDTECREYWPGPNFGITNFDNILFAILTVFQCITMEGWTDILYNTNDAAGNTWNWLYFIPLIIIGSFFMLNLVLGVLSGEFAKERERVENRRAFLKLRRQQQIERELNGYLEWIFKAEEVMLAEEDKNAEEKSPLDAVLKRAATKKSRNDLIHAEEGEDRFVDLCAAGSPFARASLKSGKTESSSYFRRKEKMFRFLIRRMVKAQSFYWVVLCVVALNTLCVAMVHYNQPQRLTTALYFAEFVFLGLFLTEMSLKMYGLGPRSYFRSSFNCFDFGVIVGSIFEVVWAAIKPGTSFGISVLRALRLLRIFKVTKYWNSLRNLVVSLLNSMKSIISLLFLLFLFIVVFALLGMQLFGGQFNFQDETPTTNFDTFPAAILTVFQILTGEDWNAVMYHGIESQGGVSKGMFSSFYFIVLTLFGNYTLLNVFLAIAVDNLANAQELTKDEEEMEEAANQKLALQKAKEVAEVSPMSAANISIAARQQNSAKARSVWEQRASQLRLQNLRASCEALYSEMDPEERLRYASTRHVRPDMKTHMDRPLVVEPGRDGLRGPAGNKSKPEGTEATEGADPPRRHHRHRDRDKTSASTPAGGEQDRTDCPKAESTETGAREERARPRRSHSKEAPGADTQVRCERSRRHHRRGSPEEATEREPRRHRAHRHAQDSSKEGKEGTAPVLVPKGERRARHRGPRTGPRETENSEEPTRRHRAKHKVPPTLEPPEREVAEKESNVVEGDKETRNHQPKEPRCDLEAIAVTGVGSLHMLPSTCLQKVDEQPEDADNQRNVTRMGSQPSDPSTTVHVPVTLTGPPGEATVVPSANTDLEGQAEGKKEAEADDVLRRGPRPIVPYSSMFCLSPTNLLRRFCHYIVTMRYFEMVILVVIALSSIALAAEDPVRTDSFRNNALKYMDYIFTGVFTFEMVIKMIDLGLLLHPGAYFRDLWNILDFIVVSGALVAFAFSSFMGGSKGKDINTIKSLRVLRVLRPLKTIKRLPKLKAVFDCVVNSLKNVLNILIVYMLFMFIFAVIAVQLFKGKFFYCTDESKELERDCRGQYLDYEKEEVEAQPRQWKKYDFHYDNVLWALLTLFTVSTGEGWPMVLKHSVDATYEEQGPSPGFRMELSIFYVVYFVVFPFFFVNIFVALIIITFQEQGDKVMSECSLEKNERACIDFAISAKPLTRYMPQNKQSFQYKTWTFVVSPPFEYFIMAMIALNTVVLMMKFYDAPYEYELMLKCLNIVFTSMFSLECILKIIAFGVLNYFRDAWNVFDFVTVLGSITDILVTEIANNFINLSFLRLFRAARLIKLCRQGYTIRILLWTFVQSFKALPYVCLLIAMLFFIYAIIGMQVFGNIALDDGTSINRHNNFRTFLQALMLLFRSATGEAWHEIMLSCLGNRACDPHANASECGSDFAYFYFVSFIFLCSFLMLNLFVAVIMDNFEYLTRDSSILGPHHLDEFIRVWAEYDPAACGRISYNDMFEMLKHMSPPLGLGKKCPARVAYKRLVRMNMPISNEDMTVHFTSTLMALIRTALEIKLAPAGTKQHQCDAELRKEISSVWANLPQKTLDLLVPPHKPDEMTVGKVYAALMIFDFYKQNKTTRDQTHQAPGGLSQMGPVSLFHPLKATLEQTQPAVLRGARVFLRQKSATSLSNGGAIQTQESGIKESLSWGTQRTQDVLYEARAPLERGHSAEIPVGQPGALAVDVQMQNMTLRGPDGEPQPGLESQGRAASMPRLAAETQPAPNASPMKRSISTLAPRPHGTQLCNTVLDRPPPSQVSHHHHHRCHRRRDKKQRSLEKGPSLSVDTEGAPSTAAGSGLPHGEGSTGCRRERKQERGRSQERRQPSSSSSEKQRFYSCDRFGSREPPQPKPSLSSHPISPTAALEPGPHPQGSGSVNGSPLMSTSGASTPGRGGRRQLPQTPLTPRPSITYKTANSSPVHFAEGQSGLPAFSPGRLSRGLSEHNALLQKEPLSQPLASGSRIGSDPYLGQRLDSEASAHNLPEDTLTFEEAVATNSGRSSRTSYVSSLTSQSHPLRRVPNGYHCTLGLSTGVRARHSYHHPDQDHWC

SMILES | target | test | system | conditions | IC50
CS(=O)(=O)C=CCNC(=O)c1ccc2[nH]c(=O)n(C3CC3)c2c1 | Polyprotein P1234, nsP2 protease (Chikungunya virus, UniProt Q5XXP4) | FRET |  | 90 min, 30 min preincubation | < 1500 nM and 1200 nM
Nc1nc2ccccc2n1Cc1ccc(Cl)cc1 | Enoyl-[acyl-carrier-protein] reductase [NADH] (Francisella tularensis subsp. tularensis, UniProt Q5NGQ3) |  |  |  | > 100000 nM
CC[C@H](C)[C@H](NC(=O)[C@H](C)NC(=O)[C@H](CCC(=O)O)NC(=O)[C@H](CCC(=O)O)NC(=O)[C@H](CC(C)C)NC(=O)[C@H](CCCCN)NC(=O)[C@H](CCCCN)NC(=O)[C@H](CCSC)NC(=O)[C@H](CCC(=O)O)NC(=O)[C@H](Cc1ccc(O)cc1)NC(=O)[C@H](CCC(=O)O)NC(=O)[C@H](CC(C)C)NC(=O)[C@H](CC(=O)O)NC(=O)[C@H](CC(C)C)NC(=O)[C@H](Cc1ccccc1)NC(=O)[C@@H](NC(=O)[C@@H](NC(=O)[C@H](CC(N)=O)NC(=O)[C@@H](NC(=O)[C@H](CCC(N)=O)NC(=O)[C@H](CC(=O)O)NC(=O)[C@H](CC(C)C)NC(=O)[C@@H](N)CO)[C@@H](C)CC)C(C)C)[C@@H](C)O)C(=O)N[C@@H](CCCCN)C(=O)N[C@@H](CCCCN)C(=O)N[C@@H](CC(C)C)C(=O)N[C@@H](CCC(=O)O)C(=O)N[C@@H](CCC(=O)O)C(=O)N[C@H](C(=O)N[C@@H](Cc1ccc(O)cc1)C(=O)N[C@H](C(=O)N[C@@H](CC(=O)O)C(=O)N[C@@H](CC(C)C)C(=O)N[C@@H](CCCCN)C(=O)N[C@@H](CCC(=O)O)C(=O)N[C@@H](CC(C)C)C(=O)O)[C@@H](C)CC)[C@@H](C)O | Spike glycoprotein (MERS-CoV, UniProt K9N5Q8) | cell-cell fusion, inhibitor, luciferase fusion | 293T donor, Huh-7 target | 16 h, 37 °C | 1800 nM
CNc1nc(N2CCNCC2)c2sc3nc(-c4ccccc4)ccc3c2n1 | Beta-glucuronidase (bglR, Clostridium perfringens, UniProt Q8XP19) | enzyme activity, inhibitor |  |  | 90 ± 40 nM
N#Cc1ccccc1C[C@@H](N)C(=O)N[C@H](Cc1ccc(Cl)cc1Cl)C(=O)N[C@H](CC(=O)NCCc1c[nH]cn1)Cc1ccc(F)cc1 | Replicase polyprotein 1ab, main protease (rep, Severe acute respiratory syndrome coronavirus 2, UniProt P0DTD1) | enzyme activity, inhibitor |  |  | 300 nM
CC[C@H](C)[C@H](NC(=O)[C@H](C)NC(=O)[C@H](CCC(=O)O)NC(=O)[C@H](CCC(=O)O)NC(=O)[C@H](CC(C)C)NC(=O)[C@H](CCCCN)NC(=O)[C@H](CCCCN)NC(=O)[C@H](CCSC)NC(=O)[C@H](CCC(=O)O)NC(=O)[C@H](Cc1ccc(O)cc1)NC(=O)[C@H](CCC(=O)O)NC(=O)[C@H](CC(C)C)NC(=O)[C@H](CC(=O)O)NC(=O)[C@H](CC(C)C)NC(=O)[C@H](Cc1ccccc1)NC(=O)[C@H](Cc1ccc(O)cc1)NC(=O)[C@@H](NC(=O)[C@H](CC(N)=O)NC(=O)[C@@H](NC(=O)[C@H](CCC(N)=O)NC(=O)[C@H](CC(=O)O)NC(=O)[C@H](CC(C)C)NC(=O)[C@@H](N)CO)[C@@H](C)CC)C(C)C)C(=O)N[C@@H](CCCCN)C(=O)N[C@@H](CCCCN)C(=O)N[C@@H](CC(C)C)C(=O)N[C@@H](CCC(=O)O)C(=O)N[C@@H](CCC(=O)O)C(=O)N[C@@H](C)C(=O)N[C@@H](Cc1ccc(O)cc1)C(=O)N[C@H](C(=O)N[C@@H](CC(=O)O)C(=O)N[C@@H](CC(C)C)C(=O)N[C@@H](CCCCN)C(=O)N[C@@H](CCC(=O)O)C(=O)N[C@@H](CC(C)C)C(=O)O)[C@@H](C)CC | Spike glycoprotein (MERS-CoV, UniProt K9N5Q8) | cell-cell fusion, inhibitor, luciferase fusion | 293T donor, Huh-7 target | 16 h, 37 °C, dual mutations | 2030 nM
CC[C@H](C)[C@@H]1NC(=O)[C@H](CCC(=O)O)NC(=O)[C@@H]2CCCN2C(=O)[C@H](Cc2c[nH]cn2)NC(=O)[C@H](CC(=O)O)NC(=O)[C@H](C(C)C)NC(=O)[C@H](CC(N)=O)NC(=O)[C@@H]2CSSC[C@H](NC(=O)[C@H](CCC(N)=O)NC(=O)[C@@H]3CCCN3C(=O)[C@@H](N)CCCNC(=N)N)C(=O)N[C@@H](CSSC[C@@H](C(N)=O)NC1=O)C(=O)N[C@@H](CO)C(=O)N[C@@H](Cc1c[nH]cn1)C(=O)N1CCC[C@H]1C(=O)N[C@@H](C)C(=O)N2 | Neuronal acetylcholine receptor; alpha3/beta4 (Homo sapiens, UniProt P30926+P32297) | ACh-evoked current, antagonist, two-electrode voltage clamp | Xenopus oocytes | 5 min, pH 7.4, holding potential -70 mV | 2100 ± 200 nM
O=C(O)CCOc1c(SSc2cnn(-c3ccccc3)c(=O)c2OCCC(=O)O)cnn(-c2ccccc2)c1=O | Sortase A (Bacillus anthracis str. H9401, UniProt P0DPQ5) | inhibitor | Bacillus anthracis |  | 9980 ± 370 nM
CC[C@H](C)[C@H](NC(=O)[C@H](C)NC(=O)[C@H](CCC(=O)O)NC(=O)[C@H](CCC(=O)O)NC(=O)[C@H](CC(C)C)NC(=O)[C@H](CCCCN)NC(=O)[C@H](CCCCN)NC(=O)[C@H](CCSC)NC(=O)[C@H](CCC(=O)O)NC(=O)[C@H](Cc1ccc(O)cc1)NC(=O)[C@H](CCC(=O)O)NC(=O)[C@H](CC(C)C)NC(=O)[C@H](CC(=O)O)NC(=O)[C@H](CC(C)C)NC(=O)[C@H](Cc1ccccc1)NC(=O)[C@@H](NC(=O)[C@@H](NC(=O)[C@H](CC(N)=O)NC(=O)[C@@H](NC(=O)[C@H](CCC(N)=O)NC(=O)[C@H](CC(=O)O)NC(=O)[C@H](CC(C)C)NC(=O)[C@@H](N)CO)[C@@H](C)CC)C(C)C)[C@@H](C)O)C(=O)N[C@@H](CCCCN)C(=O)N[C@@H](CCCCN)C(=O)N[C@@H](CC(C)C)C(=O)N[C@@H](CCC(=O)O)C(=O)N[C@@H](CCC(=O)O)C(=O)N[C@@H](CO)C(=O)N[C@@H](Cc1ccc(O)cc1)C(=O)N[C@H](C(=O)N[C@@H](CC(=O)O)C(=O)N[C@@H](CC(C)C)C(=O)N[C@@H](CCCCN)C(=O)N[C@@H](CCC(=O)O)C(=O)N[C@@H](CC(C)C)C(=O)O)[C@@H](C)CC | Spike glycoprotein (MERS-CoV, UniProt K9N5Q8) | cell-cell fusion, inhibitor, luciferase fusion | 293T donor, Huh-7 target | 16 h, 37 °C, dual mutations | 2410 nM
CN1CCN(C(c2ccccc2)c2ccccc2)CC1 | Replicase polyprotein 1ab, nsp14 (rep, Severe acute respiratory syndrome-related coronavirus, UniProt P0C6X7) | enzyme activity, inhibitor |  |  | no inhibition
Cc1cc(S(=O)(=O)NC(C(=O)NO)C2CCOCC2)ccc1F (racemic) | Lethal factor (Bacillus anthracis, UniProt P15917) |  |  |  | 800 nM
CC[C@H](C)[C@H](NC(=O)[C@H](C)NC(=O)[C@H](CCC(=O)O)NC(=O)[C@H](CCC(=O)O)NC(=O)[C@H](CC(C)C)NC(=O)[C@H](CCCCN)NC(=O)[C@H](CCCCN)NC(=O)[C@H](CCSC)NC(=O)[C@H](CCC(=O)O)NC(=O)[C@H](Cc1ccc(O)cc1)NC(=O)[C@H](CCC(=O)O)NC(=O)[C@H](CC(C)C)NC(=O)[C@H](CC(=O)O)NC(=O)[C@H](CC(C)C)NC(=O)[C@H](Cc1ccccc1)NC(=O)[C@H](Cc1ccccc1)NC(=O)[C@@H](NC(=O)[C@H](CC(N)=O)NC(=O)[C@@H](NC(=O)[C@H](CCC(N)=O)NC(=O)[C@H](CC(=O)O)NC(=O)[C@H](CC(C)C)NC(=O)[C@@H](N)CO)[C@@H](C)CC)C(C)C)C(=O)N[C@@H](CCCCN)C(=O)N[C@@H](CCCCN)C(=O)N[C@@H](CC(C)C)C(=O)N[C@@H](CCC(=O)O)C(=O)N[C@@H](CCC(=O)O)C(=O)N[C@@H](C)C(=O)N[C@@H](Cc1ccc(O)cc1)C(=O)N[C@H](C(=O)N[C@@H](CC(=O)O)C(=O)N[C@@H](CC(C)C)C(=O)N[C@@H](CCCCN)C(=O)N[C@@H](CCC(=O)O)C(=O)N[C@@H](CC(C)C)C(=O)O)[C@@H](C)CC | Spike glycoprotein (Severe acute respiratory syndrome coronavirus, UniProt P59594) | cell-cell fusion, inhibitor, luciferase fusion | 293T donor, Huh-7 target | 16 h, 37 °C, dual mutations | 10.8 nM
CCCCC/C=C\C/C=C\C/C=C\C/C=C\CCCCP(=O)(F)OC (centres unmarked) | Faah (Rattus norvegicus, UniProt P97612) |  |  | together with: FP-biotin 1 µM | 5.1 nM
C[C@@H](O)[C@@H]1NC(=O)[C@@H]2CSSC[C@H](N)C(=O)N[C@@H](CCCCN)C(=O)N[C@@H](CCCNC(=N)N)C(=O)N[C@@H](CCCCN)C(=O)NCC(=O)N[C@@H](CO)C(=O)N[C@@H](CO)C(=O)N[C@H]3CSSC[C@H](NC(=O)[C@H](CO)NC(=O)CNC1=O)C(=O)N[C@@H](CCCNC(=N)N)C(=O)N[C@@H](CC(N)=O)C(=O)NCC(=O)N[C@@H](CCCCN)C(=O)N[C@H](C(N)=O)CSSC[C@H](NC(=O)[C@H](CC(=O)O)NC(=O)[C@H](Cc1ccc(O)cc1)NC(=O)[C@H](CO)NC(=O)[C@H]([C@@H](C)O)NC(=O)[C@H](CCCNC(=N)N)NC(=O)[C@H](CCCNC(=N)N)NC3=O)C(=O)N2 | Voltage-dependent P/Q-type calcium channel subunit alpha-1A (Cacna1a, Rattus norvegicus, UniProt P54282) | ion current, inhibitor, whole-cell patch clamp |  |  | < 10000 nM
O=C(NCc1ccccc1)C1C(=O)N(O)C(=O)c2cc([N+](=O)[O-])ccc21 (centres unmarked) | Nucleoprotein, exonuclease domain (N, Lymphocytic choriomeningitis virus, UniProt P09992) | exonuclease activity, inhibitor |  |  | 16800 ± 1000 nM
CSCC[C@@H]1NC(=O)[C@H]([C@@H](C)O)NC(=O)[C@H](CCCNC(=N)N)NC(=O)[C@H](CCCNC(=N)N)NC(=O)[C@@H]2CSSC[C@@H]3NC(=O)[C@H](CO)NC(=O)CNC(=O)[C@H]([C@@H](C)O)NC(=O)[C@H](CSSC[C@H](N)C(=O)N[C@@H](CCCCN)C(=O)N[C@@H](CCCNC(=N)N)C(=O)N[C@@H](CCCCN)C(=O)NCC(=O)N[C@@H](CO)C(=O)N[C@@H](CO)C(=O)N2)NC(=O)[C@H](CSSC[C@@H](C(N)=O)NC(=O)[C@H](CCCCN)NC(=O)CNC(=O)[C@H](CC(N)=O)NC(=O)[C@H](CCCNC(=N)N)NC3=O)NC(=O)[C@H](CC(=O)O)NC(=O)[C@H](Cc2ccc(O)cc2)NC1=O | Voltage-dependent N-type calcium channel subunit alpha-1B, with α2δ, β3 subunits (Cacna1b, Rattus norvegicus, UniProt Q02294) | Ba2+ current, inhibitor, whole-cell patch clamp | HEK293 expressing α2δ and β3 | 22 °C, together with: Ba2+ 20 mM | 172 nM
CC[C@H](C)[C@H](NC(=O)[C@H](C)NC(=O)[C@H](CCC(=O)O)NC(=O)[C@H](CCC(=O)O)NC(=O)[C@H](CC(C)C)NC(=O)[C@H](CCCCN)NC(=O)[C@H](CCCCN)NC(=O)[C@H](CCSC)NC(=O)[C@H](CCC(=O)O)NC(=O)[C@H](Cc1ccc(O)cc1)NC(=O)[C@H](CCC(=O)O)NC(=O)[C@H](CC(C)C)NC(=O)[C@H](CC(=O)O)NC(=O)[C@H](CC(C)C)NC(=O)[C@H](Cc1ccccc1)NC(=O)[C@H](Cc1ccccc1)NC(=O)[C@@H](NC(=O)[C@H](CC(N)=O)NC(=O)[C@@H](NC(=O)[C@H](CCC(N)=O)NC(=O)[C@H](CC(=O)O)NC(=O)[C@H](CC(C)C)NC(=O)[C@@H](N)CO)[C@@H](C)CC)C(C)C)C(=O)N[C@@H](CCCCN)C(=O)N[C@@H](CCCCN)C(=O)N[C@@H](CC(C)C)C(=O)N[C@@H](CCC(=O)O)C(=O)N[C@@H](CCC(=O)O)C(=O)N[C@@H](CO)C(=O)N[C@@H](Cc1ccc(O)cc1)C(=O)N[C@H](C(=O)N[C@@H](CC(=O)O)C(=O)N[C@@H](CC(C)C)C(=O)N[C@@H](CCCCN)C(=O)N[C@@H](CCC(=O)O)C(=O)N[C@@H](CC(C)C)C(=O)O)[C@@H](C)CC | Spike glycoprotein (Severe acute respiratory syndrome coronavirus, UniProt P59594) | cell-cell fusion, inhibitor, luciferase fusion | 293T donor, Huh-7 target | 16 h, 37 °C | 31.9 nM

Some of these lines once more:
SMILES | target | test | system | conditions | IC50
CCCCC/C=C\C/C=C\C/C=C\C/C=C\CCCCP(=O)(F)OC (centres unmarked) | Faah (Rattus norvegicus, UniProt P97612) |  |  | together with: FP-biotin 1 µM | 5.1 nM
C[C@@H](O)[C@@H]1NC(=O)[C@@H]2CSSC[C@H](N)C(=O)N[C@@H](CCCCN)C(=O)N[C@@H](CCCNC(=N)N)C(=O)N[C@@H](CCCCN)C(=O)NCC(=O)N[C@@H](CO)C(=O)N[C@@H](CO)C(=O)N[C@H]3CSSC[C@H](NC(=O)[C@H](CO)NC(=O)CNC1=O)C(=O)N[C@@H](CCCNC(=N)N)C(=O)N[C@@H](CC(N)=O)C(=O)NCC(=O)N[C@@H](CCCCN)C(=O)N[C@H](C(N)=O)CSSC[C@H](NC(=O)[C@H](CC(=O)O)NC(=O)[C@H](Cc1ccc(O)cc1)NC(=O)[C@H](CO)NC(=O)[C@H]([C@@H](C)O)NC(=O)[C@H](CCCNC(=N)N)NC(=O)[C@H](CCCNC(=N)N)NC3=O)C(=O)N2 | Voltage-dependent P/Q-type calcium channel subunit alpha-1A (Cacna1a, Rattus norvegicus, UniProt P54282) | ion current, inhibitor, whole-cell patch clamp |  |  | < 10000 nM
